Published values gathered from unrelated publications.
Values joined by “and” are separate records of one study, mostly repeats; a detail may differ. ± marks the error that the study gave. Non-standard residues stand in square brackets, D forms with d. Square brackets hold non-standard residues; d marks the D form. Primed or numbered codes have the meaning given here. Where no end group is shown, it is not given here. Ends that are not written are not given here. No end group written: not given here. * marks the point of attachment.
B1: adrenodoxin (Bos taurus, UniProt P00257); RED dye on amines; sequence looked up; chain SSSEDKITVHFINRDGETLTTKGKIGDSLLDVVVQNNLDIDGFGACEGTLACSTCHLIFEQHIFEKLEAITDEENDMLDLAYGLTDRSRLGCQICLTKAMDNMTVRVPDAVSDARESIDMGMNSSKIE
B2: TIM8/TIM13 hetero-hexamer (Saccharomyces cerevisiae); chain 1 MSSLSTSDLASLDDTSKKEIATFLEGENSKQKVQMSIHQFTNICFKKCVESVNDSNLSSQEEQCLSNCVNRFLDTNIRIVNGLQNTR; chain 2 GGLSSIFGGGAPSQQKEAATTAKTTPNPIAKELKNQIAQELAVANATELVNKISENCFEKCLTSPYATRNDACIDQCLAKYMRSWNVISKAYISRIQNASASGEI
B3: DBI (Mus musculus, UniProt P31786); Cy5 label; sequence looked up; chain MSQAEFDKAAEEVKRLKTQPTDEEMLFIYSHFKQATVGDVNTDRPGLLDLKGKAKWDSWNKLKGTSKESAMKTYVEKVDELKKKYGI
B4: enzyme (Bacillus pumilus, UniProt A8FFI9); chain EARSIAWSVDEFFKNREGTFVIQEVKEKSPWVYNKKRAKERFAPQSTFKVANALIGLQTGAVRDEYDIKYWDGVKREIDNWNRDHTLGSGMRDSVVWYYQAMARDIGEERMNHWVKAIHYGNKDISGGIDQFWLSSTLRISPIEQVRFLKQLYEETLPFDLKNMRTVKRMMVQEEEKHATLYGKTGSGSDIGWYVGFIKHEHKTYILATNIKGTGIEAKDITYRILKKYHLMEASV
B5: POL30 (Saccharomyces cerevisiae, UniProt P15873); Cy3 label; sequence looked up; chain MLEAKFEEASLFKRIIDGFKDCVQLVNFQCKEDGIIAQAVDDSRVLLVSLEIGVEAFQEYRCDHPVTLGMDLTSLSKILRCGNNTDTLTLIADNTPDSIILLFEDTKKDRIAEYSLKLMDIDADFLKIEELQYDSTLSLPSSEFSKIVRDLSQLSDSINIMITKETIKFVADGDIGSGSVIIKPFVDMEHPETSIKLEMDQPVDLTFGAKYLLDIIKGSSLSDRVGIRLSSEAPALFQFDLKSGFLQFFLAPKFNDEE
B6: CLASP1/GFP 805-1471 (Homo sapiens); chain ADALKKPVRRRYEPYGMYSDDDANSDASSVCSERSYGSRNGGIPHYLRQTEDVAEVLNHCASSNWSERKEGLLGLQNLLKSQRTLSRVELKRLCEIFTRMFADPHSKRVFSMFLETLVDFIIIHKDDLQDWLFVLLTQLLKKMGADLLGSVQAKVQKALDVTRDSFPFDQQFNILMRFIVDQTQTPNLKVKVAILKYIESLARQMDPTDFVNSSETRLAVSRIITWTTEPKSSDVRKAAQIVLISLFELNTPEFTMLLGALPKTFQDGATKLLHNHLKNSSNTSVGSPSNTIGRTPSRHTSSRTSPLTSPTNCSHGGLSPSRLWGWSADGLAKHPPPFSQPNSIPTAPSHKALRRSYSPSMLDYDTENLNSEEIYSSLRGVTEAIEKFSFRSQEDLNEPIKRDGKKECDIVSRDGGAASPATEGRGGSEVEGGRTALDNKTSLLNTQPPRAFPGPRARDYNPYPYSDAINTYDKTALKEAVFDDDMEQLRDVPIDHSDLVADLLKELSNHNERVEERKGALLELLKITREDSLGVWEEHFKTILLLLLETLGDKDHSIRALALRVLREILRNQPARFKNYAELTIMKTLEAHKDSHKEVVRAAEEAASTLASSIHPEQCIKVLCPIIQTADYPINLAAIKMQTKVVERIAKESLLQLLVDIIPGLLQ
B7: Nlgn2 43-612 (Rattus norvegicus, UniProt Q62888-1); sequence looked up; chain VVNTAYGRVRGVRRELNNEILGPVVQFLGVPYATPPLGARRFQPPEAPASWPGVRNATTLPPACPQNLHGALPAIMLPVWFTDNLEAAATYVQNQSEDCLYLNLYVPTEDGPLTKKRDEATLNPPDTDIRDSGKKPVMLFLHGGSYMEGTGNMFDGSVLAAYGNVIVATLNYRLGVLGFLSTGDQAAKGNYGLLDQIQALRWLSENIAHFGGDPERITIFGSGAGASCVNLLILSHHSEGLFQKAIAQSGTAISSWSVNYQPLKYTRLLAAKVGCDREDSTEAVECLRRKSSRELVDQDVQPARYHIAFGPVVDGDVVPDDPEILMQQGEFLNYDMLIGVNQGEGLKFVEDSAESEDGVSASAFDFTVSNFVDNLYGYPEGKDVLRETIKFMYTDWADRDNGEMRRKTLLALFTDHQWVAPAVATAKLHADYQSPVYFYTFYHHCQAEGRPEWADAAHGDELPYVFGVPMVGATDLFPCNFSKNDVMLSAVVMTYWTNFAKTGDPNQPVPQDTKFIHTKPNRFEEVVWSKFNSKEKQYLHIGLKPRVRDNYRANKVAFWLELVPHLHNLH
B8: GPR155 538-658 (Homo sapiens, UniProt Q7Z3F1); sequence looked up; chain SLMCMNQTAQAGSYEGFDQSQSHKVVEPGNTAFEESPAPVNEPELFTSSIPETSCCSCSMGNGELHCPSIEPIANTSTSEPVIPSFEKNNHCVSRCNSQSCILAQEEEQYLQSGDQQLTRH
B9: CDH1 residues 1-108 (Homo sapiens); chain MDWVIPPISLPENEKGPFPKNLVQIKSNKDKEGKVFYSITGQGADTPPVGVFIIERETGWLKVTEPLDRERIATYTLFSHAVSSNGNAVEDPMEILITVTDQNDNKPEF
B10: UGT1A9 (Homo sapiens, UniProt O60656); chain GKLLVVPMDGSHWFTMRSVVEKLILRGHEVVVVMPEVSWQLGRSLNCTVKTYSTSYTLEDLDREFKAFAHAQWKAQVRSIYSLLMGSYNDIFDLFFSNCRSLFKDKKLVEYLKESSFDAVFLDPFDNCGLIVAKYFSLPSVVFARGILCHYLEEGAQCPAPLSYVPRILLGFSDAMTFKERVRNHIMHLEEHLLCHRFFKNALEIASEILQTPVTEYDLYSHTSIWLLRTDFVLDYPKPVMPNMIFIGGINCHQGKPLPMEFEAYINASGEHGIVVFSLGSMVSEIPEKKAMAIADALGKIPQTVLWRYTGTRPSNLANNTILVKWLPQNDLLGHPMTRAFITHAGSHGVYESICNGVPMVMMPLFGDQMDNAKRMETKGAGVTLNVLEMTSEDLENALKAVINDKSYKENIMRLSSLHKDRPVEPLDLAVFWVEFVMRHKGAPHLRPAAHDLTWYQYHSLDVIGFLLAVVLTVAFITFKCCAYGYRKCLGKKGRVKKAHKSKTH
UniProt P06400, sequence (whole entry, unmodified, looked up): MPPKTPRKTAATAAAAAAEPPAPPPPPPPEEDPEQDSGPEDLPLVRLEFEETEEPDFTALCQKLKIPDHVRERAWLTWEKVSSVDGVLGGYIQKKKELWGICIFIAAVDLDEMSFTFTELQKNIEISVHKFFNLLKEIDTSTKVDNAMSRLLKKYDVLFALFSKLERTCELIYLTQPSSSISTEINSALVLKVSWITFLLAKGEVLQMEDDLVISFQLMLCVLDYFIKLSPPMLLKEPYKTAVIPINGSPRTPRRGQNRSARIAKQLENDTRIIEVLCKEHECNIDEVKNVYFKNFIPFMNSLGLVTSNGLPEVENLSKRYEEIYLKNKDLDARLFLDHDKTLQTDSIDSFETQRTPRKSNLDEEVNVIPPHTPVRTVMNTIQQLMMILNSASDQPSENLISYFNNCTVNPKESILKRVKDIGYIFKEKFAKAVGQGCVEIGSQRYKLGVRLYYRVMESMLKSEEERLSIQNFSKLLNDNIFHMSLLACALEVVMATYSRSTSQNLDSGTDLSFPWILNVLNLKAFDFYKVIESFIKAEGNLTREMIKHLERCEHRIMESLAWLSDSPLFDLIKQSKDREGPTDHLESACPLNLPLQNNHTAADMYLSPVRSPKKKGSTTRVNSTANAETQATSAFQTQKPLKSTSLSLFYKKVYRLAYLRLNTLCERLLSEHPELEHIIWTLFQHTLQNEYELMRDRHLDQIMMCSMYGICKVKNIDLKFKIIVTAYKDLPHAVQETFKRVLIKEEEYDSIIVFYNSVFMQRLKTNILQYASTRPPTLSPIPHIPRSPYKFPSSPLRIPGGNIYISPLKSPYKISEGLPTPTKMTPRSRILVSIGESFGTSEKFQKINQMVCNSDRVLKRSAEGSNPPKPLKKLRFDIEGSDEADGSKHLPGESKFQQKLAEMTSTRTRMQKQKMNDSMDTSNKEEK
UniProt P54760, sequence (whole entry, looked up): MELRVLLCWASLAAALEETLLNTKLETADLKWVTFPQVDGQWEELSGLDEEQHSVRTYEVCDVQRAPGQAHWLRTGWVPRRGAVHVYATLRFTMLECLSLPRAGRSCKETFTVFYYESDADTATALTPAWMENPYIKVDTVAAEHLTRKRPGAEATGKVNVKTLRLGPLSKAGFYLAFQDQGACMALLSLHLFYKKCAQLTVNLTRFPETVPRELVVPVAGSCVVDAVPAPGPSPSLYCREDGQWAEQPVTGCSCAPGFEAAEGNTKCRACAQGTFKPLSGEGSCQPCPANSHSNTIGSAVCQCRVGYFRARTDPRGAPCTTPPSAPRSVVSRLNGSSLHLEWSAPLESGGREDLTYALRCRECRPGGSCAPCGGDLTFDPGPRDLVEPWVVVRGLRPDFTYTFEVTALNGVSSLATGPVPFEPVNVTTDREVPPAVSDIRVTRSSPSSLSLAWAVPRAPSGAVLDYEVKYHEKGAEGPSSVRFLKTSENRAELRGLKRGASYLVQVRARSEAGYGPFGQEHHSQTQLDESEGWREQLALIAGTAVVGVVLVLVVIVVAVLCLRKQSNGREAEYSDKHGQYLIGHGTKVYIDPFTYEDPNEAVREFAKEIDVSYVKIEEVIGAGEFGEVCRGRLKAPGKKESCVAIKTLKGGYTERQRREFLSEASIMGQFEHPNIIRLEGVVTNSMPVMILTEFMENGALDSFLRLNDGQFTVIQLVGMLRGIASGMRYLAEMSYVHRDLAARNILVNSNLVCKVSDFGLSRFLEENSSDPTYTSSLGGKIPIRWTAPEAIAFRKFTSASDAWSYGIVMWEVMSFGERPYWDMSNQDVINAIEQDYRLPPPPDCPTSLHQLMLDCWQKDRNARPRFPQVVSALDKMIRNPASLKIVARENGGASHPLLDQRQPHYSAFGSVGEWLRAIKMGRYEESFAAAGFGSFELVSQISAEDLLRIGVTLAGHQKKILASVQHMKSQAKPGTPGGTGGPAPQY
UniProt P19099, sequence (whole entry, looked up): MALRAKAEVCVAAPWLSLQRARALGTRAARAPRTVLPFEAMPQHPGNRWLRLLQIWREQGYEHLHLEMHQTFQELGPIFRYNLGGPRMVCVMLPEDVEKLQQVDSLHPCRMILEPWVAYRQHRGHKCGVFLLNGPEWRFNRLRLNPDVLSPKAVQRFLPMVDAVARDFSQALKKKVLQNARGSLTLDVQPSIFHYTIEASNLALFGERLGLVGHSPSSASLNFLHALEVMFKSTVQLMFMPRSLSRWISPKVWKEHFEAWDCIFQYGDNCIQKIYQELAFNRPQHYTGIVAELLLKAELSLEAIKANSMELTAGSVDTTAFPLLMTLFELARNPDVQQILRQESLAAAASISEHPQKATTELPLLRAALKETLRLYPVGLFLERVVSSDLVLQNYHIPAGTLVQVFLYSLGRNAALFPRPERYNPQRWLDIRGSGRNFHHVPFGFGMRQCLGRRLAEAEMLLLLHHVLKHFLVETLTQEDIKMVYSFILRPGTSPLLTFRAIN
UniProt Q15116, sequence (whole entry, looked up): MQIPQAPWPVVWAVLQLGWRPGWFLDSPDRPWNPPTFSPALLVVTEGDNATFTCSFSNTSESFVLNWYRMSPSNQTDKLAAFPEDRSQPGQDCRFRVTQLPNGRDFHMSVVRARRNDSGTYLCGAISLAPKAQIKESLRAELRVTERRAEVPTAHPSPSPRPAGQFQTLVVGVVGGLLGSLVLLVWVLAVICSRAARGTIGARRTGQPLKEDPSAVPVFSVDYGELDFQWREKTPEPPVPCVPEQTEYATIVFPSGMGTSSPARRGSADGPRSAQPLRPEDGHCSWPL
UniProt P27694, sequence (whole entry, looked up): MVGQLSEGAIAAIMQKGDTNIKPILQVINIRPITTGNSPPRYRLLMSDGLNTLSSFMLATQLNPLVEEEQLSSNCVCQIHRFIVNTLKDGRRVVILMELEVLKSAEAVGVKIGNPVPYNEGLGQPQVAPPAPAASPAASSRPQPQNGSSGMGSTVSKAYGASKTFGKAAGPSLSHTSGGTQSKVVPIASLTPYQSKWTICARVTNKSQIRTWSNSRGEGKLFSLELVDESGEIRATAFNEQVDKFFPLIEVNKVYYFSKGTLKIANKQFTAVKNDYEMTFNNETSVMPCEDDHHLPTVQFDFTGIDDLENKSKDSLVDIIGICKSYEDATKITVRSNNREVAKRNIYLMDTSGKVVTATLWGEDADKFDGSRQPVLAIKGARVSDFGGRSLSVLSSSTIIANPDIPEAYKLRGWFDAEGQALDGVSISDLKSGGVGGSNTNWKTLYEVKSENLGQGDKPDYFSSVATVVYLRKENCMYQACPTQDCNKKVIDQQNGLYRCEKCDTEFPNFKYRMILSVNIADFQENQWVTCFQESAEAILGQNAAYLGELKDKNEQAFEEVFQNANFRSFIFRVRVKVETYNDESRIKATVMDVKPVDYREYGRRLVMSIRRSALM
UniProt Q96E93, sequence (whole entry, looked up): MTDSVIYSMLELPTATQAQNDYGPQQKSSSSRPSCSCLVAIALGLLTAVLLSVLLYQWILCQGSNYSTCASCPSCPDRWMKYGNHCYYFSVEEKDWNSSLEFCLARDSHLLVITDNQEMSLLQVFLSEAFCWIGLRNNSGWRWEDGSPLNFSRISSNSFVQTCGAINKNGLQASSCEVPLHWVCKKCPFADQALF
UniProt P32198, sequence (whole entry, unmodified, looked up): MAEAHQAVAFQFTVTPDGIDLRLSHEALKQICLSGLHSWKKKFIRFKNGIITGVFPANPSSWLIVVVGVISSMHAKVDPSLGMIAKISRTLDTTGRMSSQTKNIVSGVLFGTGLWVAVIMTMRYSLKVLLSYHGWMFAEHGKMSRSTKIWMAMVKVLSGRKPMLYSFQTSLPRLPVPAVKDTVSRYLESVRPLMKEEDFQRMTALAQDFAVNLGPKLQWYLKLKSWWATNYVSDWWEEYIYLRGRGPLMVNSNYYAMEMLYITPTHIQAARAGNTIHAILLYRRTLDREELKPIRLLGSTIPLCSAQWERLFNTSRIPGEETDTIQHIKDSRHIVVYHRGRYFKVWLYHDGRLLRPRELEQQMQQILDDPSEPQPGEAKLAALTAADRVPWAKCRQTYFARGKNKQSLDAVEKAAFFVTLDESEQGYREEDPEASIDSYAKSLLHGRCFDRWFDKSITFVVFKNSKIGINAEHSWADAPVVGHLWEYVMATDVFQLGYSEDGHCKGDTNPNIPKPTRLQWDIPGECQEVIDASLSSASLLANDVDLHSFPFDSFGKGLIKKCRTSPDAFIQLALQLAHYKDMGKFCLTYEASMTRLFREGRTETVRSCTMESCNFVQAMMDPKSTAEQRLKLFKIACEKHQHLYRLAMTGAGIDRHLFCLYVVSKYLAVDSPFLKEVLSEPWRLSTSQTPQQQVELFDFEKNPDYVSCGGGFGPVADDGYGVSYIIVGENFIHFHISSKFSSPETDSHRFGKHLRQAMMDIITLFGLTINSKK
UniProt P32897, sequence (whole entry, looked up): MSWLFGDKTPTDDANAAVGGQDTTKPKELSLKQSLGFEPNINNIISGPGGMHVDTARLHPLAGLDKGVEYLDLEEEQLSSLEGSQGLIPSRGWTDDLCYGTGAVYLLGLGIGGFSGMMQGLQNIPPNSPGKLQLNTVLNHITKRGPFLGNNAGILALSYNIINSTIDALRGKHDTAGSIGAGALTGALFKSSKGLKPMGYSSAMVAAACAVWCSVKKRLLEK

B1 (adrenodoxin) — Kd (CYP11B2 (Homo sapiens, UniProt P19099); MST; pH 7.4, 25 °C, oxidized, single-site model): 0.006 µM
B2 (TIM8/TIM13 hetero-hexamer) — Kd (TIM23 1-98 (Saccharomyces cerevisiae, UniProt P32897); ITC; 20 °C): 66 ± 8 µM
B3 (DBI) — Kd (CPT1A 381-469 W391A, Cy3 label (Rattus norvegicus, UniProt P32198); FRET; 24 °C): 0.006 µM
B4 (enzyme) — kcat (CC1(C)S[C@@H]2[C@H](NC(=O)[C@H](N)c3ccccc3)C(=O)N2[C@H]1C(=O)O; steady-state kinetics; pH 7): 56 ± 2 s⁻¹
GVVEVDAAV[pT]PEERHLSKMQQ (APP 659-679 (UniProt P05067-4); not fully specified; pT668; pT = C[C@@H](OP(=O)(O)O)[C@H](N)C(=O)O; sequence looked up) — Kd (PIN1 WW domain 1-53 (Homo sapiens, UniProt Q13526); NMR titration; peptide; trans isomer): 26.9 µM
KVAK[pS]PKKAKAW (H1-5 168-178 (Homo sapiens); pS172; pS = N[C@@H](COP(=O)(O)O)C(=O)O) — Kd (PIN1 (Homo sapiens, UniProt Q13526); NMR titration; peptide; apparent Kd, single-residue fits): 2600 µM
B5 (POL30) — Kd (RAD30 (Saccharomyces cerevisiae, UniProt Q04049); single-molecule TIRF; calculated from kon, koff): 0.0046 µM
B6 (CLASP1/GFP 805-1471) — Kd (PRC1 (Homo sapiens, UniProt O43663); BLI): > 10 µM
anti-CD45 clone #4/nivolumab diabody bispecific diabody — Kd (PDCD1 ectodomain 25-170 (Homo sapiens, UniProt Q15116); SPR; 25 °C, equilibrium): 0.029 µM
GSGASMPNENSVKEPEIRCDEKPEDLLEEPKTTSEETLEDCSEVTPAM (PRDM2 residues 297-341 (Homo sapiens, UniProt Q13029)) — Kd (RB1 372-581 linked 636-787 (Homo sapiens, UniProt P06400); fluorescence polarisation; competition): 0.11 µM
{TMR}-QDDYLWGLEAGEGISDLFD (E2F2 409-428 (Homo sapiens); N-terminal TMR label; TMR = tetramethylrhodamine dye) — Kd (RB1 55-787 del245-267/del582-642 (UniProt P06400); fluorescence polarisation; peptide; pH 8.0, NaCl 100 mM, two-site fit, together with: E7 LxCxE peptide 10 µM): 0.0043 µM
B7 (Nlgn2 43-612) — Kd (MDGA1 ectodomain 22-920, TAMRA label (Homo sapiens, UniProt Q8NFP4-1); fluorescence polarisation; pH 7.5, 25 °C, NaCl 25 mM, one-site total binding fit): 0.048 µM
NRP1 (Homo sapiens, UniProt O14786) — Kd (SEMA3F 740-779, N-terminal FITC (Homo sapiens); fluorescence polarisation; 1.8 µM, pH 7.5, 23 °C, NaCl 100 mM, single site model): 2.2 ± 0.2 µM
ETDKE[pY][pY]TVKD (JAK1 1029-1039; pY1034/pY1035; pY = N[C@@H](Cc1ccc(OP(=O)(O)O)cc1)C(=O)O) — Kd (PTPN6 243-530 C453S (Homo sapiens, UniProt P29350); ITC; peptide; pH 8.0, 25 °C, NaCl 100 mM): 0.7 ± 0.1 µM
B8 (GPR155 538-658) — Kd (DEPDC5/NPRL2/NPRL3 heterotrimer; MST): 12 µM
{Cy5.5(3)}-TNYLFSPNGPIARAW (peptide; N-terminal Cy5.5; Cy5.5(3) = Cy5.5 fluorescent dye) — Kd (EPHB4 16-539 (Homo sapiens, UniProt P54760); SPR; peptide): 0.00127 µM
B9 (CDH1 residues 1-108) — Kd (KLRG1 C-type lectin domain 75-186 (Homo sapiens, UniProt Q96E93); SPR; equilibrium fit, Scatchard analysis): 200 µM
ATRIP fragment — Kd (RPA1 1-120 (Homo sapiens, UniProt P27694); competition with ATRIP probe, fluorescence polarisation; pH 7.5, NaCl 75 mM): 29 µM
RFC1/RFC2/RFC3/RFC4/RFC5 Rfc1 284-end (Saccharomyces cerevisiae) — Kd (POL30 1-258 C22S/C62S/C81S/S43C, MDCC on Cys43 (Saccharomyces cerevisiae, UniProt P15873); fluorescence titration; together with: ATP 0.5 mM): 0.0079 µM and 0.0055 µM
{FITC}-GFID[pS]D[pT]DVEEE-NH2 (MDC1 phosphopeptide; FITC N-terminus, pS5, pT7, C-terminal amide; FITC = O=C1OC2(c3ccc(O)cc3Oc3cc(O)ccc32)c2ccc(NC(=S)*)cc21; pS = N[C@@H](COP(=O)(O)O)C(=O)O; pT = C[C@@H](OP(=O)(O)O)[C@H](N)C(=O)O) — Kd (TOPBP1 641-746 K704A (Homo sapiens, UniProt Q92547); fluorescence polarisation; peptide; NaCl 150 mM): 210 ± 50 µM
B10 (UGT1A9) — Vmax/Km (COc1ccccc1-c1cc(=O)c2ccc(O)cc2o1; steady-state kinetics; pH 7.4, 37 °C): 1010 µL/min/mg
